{"data": "Results gathered from unrelated publications", "note": "Parts stem from different laboratories: compare values within a part only.", "sequence of UniProt Q969T4 (whole entry, looked up)": "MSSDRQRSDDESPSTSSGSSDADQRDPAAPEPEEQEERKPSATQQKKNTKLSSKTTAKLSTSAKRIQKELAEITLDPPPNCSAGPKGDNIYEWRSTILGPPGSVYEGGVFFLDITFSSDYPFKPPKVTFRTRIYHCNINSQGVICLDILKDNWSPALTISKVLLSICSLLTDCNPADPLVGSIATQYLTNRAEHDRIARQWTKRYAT", "sequence of UniProt O00762 (whole entry, looked up)": "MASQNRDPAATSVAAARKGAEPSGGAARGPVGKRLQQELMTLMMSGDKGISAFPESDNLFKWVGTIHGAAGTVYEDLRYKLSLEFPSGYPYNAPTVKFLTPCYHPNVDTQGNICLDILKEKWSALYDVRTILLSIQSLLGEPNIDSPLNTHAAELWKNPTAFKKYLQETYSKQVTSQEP", "sequence of UniProt Q712K3 (whole entry, looked up)": "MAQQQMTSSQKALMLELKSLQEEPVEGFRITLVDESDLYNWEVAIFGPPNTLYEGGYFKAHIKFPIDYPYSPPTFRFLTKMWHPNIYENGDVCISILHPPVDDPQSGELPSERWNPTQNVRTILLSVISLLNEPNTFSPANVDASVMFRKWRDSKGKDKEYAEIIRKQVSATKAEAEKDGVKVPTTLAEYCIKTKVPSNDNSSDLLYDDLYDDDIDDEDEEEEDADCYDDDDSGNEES", "sequence of UniProt Q9NPD8 (whole entry, looked up)": "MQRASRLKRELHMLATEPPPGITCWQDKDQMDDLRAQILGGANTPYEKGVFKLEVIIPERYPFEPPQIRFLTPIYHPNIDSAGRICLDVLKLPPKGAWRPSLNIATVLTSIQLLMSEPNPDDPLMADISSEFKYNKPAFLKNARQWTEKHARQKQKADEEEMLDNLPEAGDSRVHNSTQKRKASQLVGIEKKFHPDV", "sequence of UniProt Q9Y385 (whole entry, looked up)": "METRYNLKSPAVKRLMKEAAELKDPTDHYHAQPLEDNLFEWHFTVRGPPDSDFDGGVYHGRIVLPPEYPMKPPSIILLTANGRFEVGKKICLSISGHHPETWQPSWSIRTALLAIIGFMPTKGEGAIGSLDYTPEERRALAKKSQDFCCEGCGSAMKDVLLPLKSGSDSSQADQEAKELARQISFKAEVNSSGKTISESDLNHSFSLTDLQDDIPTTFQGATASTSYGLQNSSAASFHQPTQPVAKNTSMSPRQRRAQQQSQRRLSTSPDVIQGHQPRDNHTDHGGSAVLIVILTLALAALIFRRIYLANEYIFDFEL", "sequence of UniProt P51668 (whole entry, looked up)": "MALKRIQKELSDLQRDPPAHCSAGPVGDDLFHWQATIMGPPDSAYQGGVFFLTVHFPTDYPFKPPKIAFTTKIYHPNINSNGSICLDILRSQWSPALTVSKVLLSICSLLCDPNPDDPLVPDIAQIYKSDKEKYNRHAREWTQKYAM", "sequence of UniProt Q7Z7E8 (whole entry, looked up)": "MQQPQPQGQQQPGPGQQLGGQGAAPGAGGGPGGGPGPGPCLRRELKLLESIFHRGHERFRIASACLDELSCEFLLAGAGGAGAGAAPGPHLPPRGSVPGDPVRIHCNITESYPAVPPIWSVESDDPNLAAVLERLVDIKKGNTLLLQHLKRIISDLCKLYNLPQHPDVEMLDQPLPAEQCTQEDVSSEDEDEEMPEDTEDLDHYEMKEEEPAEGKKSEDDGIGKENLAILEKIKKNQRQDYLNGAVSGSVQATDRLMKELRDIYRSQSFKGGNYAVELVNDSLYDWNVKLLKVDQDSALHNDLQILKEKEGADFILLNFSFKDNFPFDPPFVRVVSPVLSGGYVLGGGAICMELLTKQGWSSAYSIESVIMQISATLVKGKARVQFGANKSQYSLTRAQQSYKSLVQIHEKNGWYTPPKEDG"}
{"data": "Series 1", "Sequence": "B1 (RNF24 RING domain)", "method": "yeast two-hybrid", "sample": "yeast", "setting": "mostly zero background", "baseline": "not given", "reading": "higher = stronger interaction", "B1": "RNF24 RING domain (UniProt Q9Y225); chain KVKELNLHELCAVCLEDFKPRDELGICPCKHAFHRKCLIKWLEVRKVCPLCNMPVLQLAQLH"}
{"target": "UBE2T UBC core domain (UniProt Q9NPD8)", "lacZ reporter activity": 0}
{"target": "UBE2Q1 UBC core domain (UniProt Q7Z7E8)", "lacZ reporter activity": 0}
{"target": "UBE2I UBC core domain (UniProt P63279)", "lacZ reporter activity": 0}
{"target": "UBE2C UBC core domain (UniProt O00762)", "lacZ reporter activity": 0}
{"target": "UBE2R2 UBC core domain (UniProt Q712K3)", "lacZ reporter activity": 0}
{"target": "UBE2J1 UBC core domain (UniProt Q9Y385)", "lacZ reporter activity": 0}
{"target": "UBE2E3 UBC core domain (UniProt Q969T4)", "lacZ reporter activity": 0}
{"target": "UBE2D1 UBC core domain (UniProt P51668)", "lacZ reporter activity": 0}
{"data": "Series 2", "target": "Histone acetyltransferase KAT6A, winged helix 1, GST fusion (KAT6A, Homo sapiens, UniProt Q92794, residues 1-85)", "method": "protein binding microarray", "molecule type": "double-stranded DNA, one strand shown", "sample": "in vitro", "concentration": "not given", "setting": "8-mer, flanks averaged, mean of 2 arrays, mostly near background", "baseline": "not given", "reading": "higher = stronger binding", "Target sequence (chain)": "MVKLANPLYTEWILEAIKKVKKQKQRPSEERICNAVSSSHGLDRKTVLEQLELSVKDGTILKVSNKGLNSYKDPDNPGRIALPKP"}
{"Sequence": "AGCTAGAA", "E-score": -0.227}
{"Sequence": "GGCATGAC", "E-score": 0.106}
{"Sequence": "GGTGTAGA", "E-score": -0.123}
{"Sequence": "ATCGCCCC", "E-score": 0.0772}
{"Sequence": "CGTAGTGC", "E-score": 0.143}
{"Sequence": "ACACCGCA", "E-score": -0.0127}
{"Sequence": "CTACTCAC", "E-score": -0.0381}
{"Sequence": "ACCCACCT", "E-score": -0.223}
{"Sequence": "CCATCCAC", "E-score": -0.228}
{"Sequence": "AACCCCCT", "E-score": -0.185}
{"Sequence": "ACAAAGCG", "E-score": 0.113}
{"Sequence": "AGGGGCGG", "E-score": 0.237}
{"Sequence": "CTAATCGA", "E-score": -0.0941}
{"Sequence": "CACTTATG", "E-score": -0.181}
{"Sequence": "CCAGCCAA", "E-score": -0.194}
{"Sequence": "AATCTAAT", "E-score": -0.0195}
{"Sequence": "AATCATCC", "E-score": -0.155}
{"Sequence": "TAGCCTAA", "E-score": -0.159}
{"Sequence": "ATTAATTC", "E-score": -0.0537}
{"Sequence": "CAAATCAA", "E-score": -0.203}
{"Sequence": "AGGGTTGG", "E-score": -0.151}
{"Sequence": "ATGGAGAG", "E-score": -0.17}
{"Sequence": "AATTTACA", "E-score": -0.24}
{"Sequence": "AACCATCT", "E-score": -0.0638}
{"Sequence": "GGGGTGTA", "E-score": 0.0133}
{"data": "Series 3", "target": "Centromere-binding protein 1, full length, N-terminal tag (CBF1, Saccharomyces cerevisiae, UniProt P17106, residues 1-351)", "method": "protein-binding microarray", "molecule type": "double-stranded DNA, one strand shown", "sample": "in vitro", "concentration": "0.8 µM", "setting": "whole 60-bp probe, no competitor", "reading": "higher = stronger binding", "shared flanks, not repeated": "… GTCTTGATTCGCTTGACGCTGCTG", "sequence of UniProt P17106 (whole entry, looked up)": "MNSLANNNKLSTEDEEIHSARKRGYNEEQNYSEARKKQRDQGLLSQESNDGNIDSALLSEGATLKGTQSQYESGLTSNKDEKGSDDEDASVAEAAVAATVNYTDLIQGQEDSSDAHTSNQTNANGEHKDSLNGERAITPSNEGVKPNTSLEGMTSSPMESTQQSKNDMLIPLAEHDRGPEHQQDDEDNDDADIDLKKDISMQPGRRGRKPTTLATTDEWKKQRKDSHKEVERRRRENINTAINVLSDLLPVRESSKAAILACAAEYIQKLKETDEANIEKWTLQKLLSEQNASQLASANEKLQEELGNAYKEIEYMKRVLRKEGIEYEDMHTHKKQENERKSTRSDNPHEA"}
{"Sequence": "CTAAGTTCTTCAGCAAACGTGATTTGCAAAACATTC", "fluorescence intensity": "1740 a.u."}
{"Sequence": "CTAAGTTCTGTATATCACGATCAAGATATCATATTC", "fluorescence intensity": "586 a.u."}
{"Sequence": "GAAAAAGCTTACGCTGATGTAAGTAATGAGTAATAG", "fluorescence intensity": "532 a.u."}
{"Sequence": "GAATCCAGTTCACATCAGTTGAGTAGAGAATAGTAG", "fluorescence intensity": "571 a.u."}
{"Sequence": "CTAGATTTTTCAGGTGATGAGGTGGAGCTGGAGTTC", "fluorescence intensity": "732 a.u."}
{"Sequence": "TGTACGAAGCTATATGATGAATCTATAGTAGTTAGG", "fluorescence intensity": "525 a.u."}
{"Sequence": "GAACTTTTTCCAACGCGCATGACTAACCTACTATAG", "fluorescence intensity": "678 a.u."}
{"Sequence": "CTAAACGTAACTTAGTATCACATGTATTAGTATTTC", "fluorescence intensity": "2140 a.u."}
{"Sequence": "GAAGTATTGTGCGAGCACGCAGGACGGGAAAAATAG", "fluorescence intensity": "553 a.u."}
{"Sequence": "GAAGGGTGTGTGGGTGTGGTGTGGGTGTGGGTGTAG", "fluorescence intensity": "507 a.u."}
{"Sequence": "GAATCAAGTTGGTGTCACGTCACGTGCTTTTCATAG", "fluorescence intensity": "19700 a.u."}
{"Sequence": "GAAACTTATTTAGAACACGTTCACACTGAGTAATAG", "fluorescence intensity": "692 a.u."}
{"Sequence": "GAAGTTCTAACTAAGCATCAGAACATAATACAATAG", "fluorescence intensity": "507 a.u."}
{"Sequence": "GAAATCAAGATAAATGGCACGTGTATGTACGGCTAG", "fluorescence intensity": "6690 a.u."}
{"Sequence": "GAAGATTGCAAATCAAACGTGTGGCTCCTCGAGTAG", "fluorescence intensity": "516 a.u."}
{"Sequence": "GAAGTTAGTTTGCAGCACATGAGTAGCAGTGGCTAG", "fluorescence intensity": "610 a.u."}
{"Sequence": "CTAGAACTTTGAGCTCCCTCACGTGGAAAATATTTC", "fluorescence intensity": "5630 a.u."}
{"Sequence": "CCTAACTACTATAAGCACGTGACATAGCTTCGTACA", "fluorescence intensity": "19200 a.u."}
{"Sequence": "TGTACGAAGCTATAGTGCGTGTCTATAGTAGTTAGG", "fluorescence intensity": "515 a.u."}
{"data": "Series 4", "target": "Ras GTPase-activating protein-binding protein 1, full length (G3BP1, Homo sapiens, UniProt Q13283)", "method": "RNA Bind-n-Seq", "molecule type": "RNA", "sample": "in vitro", "concentration": "200 nM", "setting": "whole 134-nt RNA, ends assumed", "with": "150 mM LiCl", "baseline": "input library", "reading": "higher = stronger binding", "each molecule": "7-deaza-guanosine replaces G", "shared flanks, not repeated": "GGGAGUUCUACAGUCCGACGAUC … UGGAAUUCUCGGGUGUCAAGG", "sequence of UniProt Q13283 (whole entry, looked up)": "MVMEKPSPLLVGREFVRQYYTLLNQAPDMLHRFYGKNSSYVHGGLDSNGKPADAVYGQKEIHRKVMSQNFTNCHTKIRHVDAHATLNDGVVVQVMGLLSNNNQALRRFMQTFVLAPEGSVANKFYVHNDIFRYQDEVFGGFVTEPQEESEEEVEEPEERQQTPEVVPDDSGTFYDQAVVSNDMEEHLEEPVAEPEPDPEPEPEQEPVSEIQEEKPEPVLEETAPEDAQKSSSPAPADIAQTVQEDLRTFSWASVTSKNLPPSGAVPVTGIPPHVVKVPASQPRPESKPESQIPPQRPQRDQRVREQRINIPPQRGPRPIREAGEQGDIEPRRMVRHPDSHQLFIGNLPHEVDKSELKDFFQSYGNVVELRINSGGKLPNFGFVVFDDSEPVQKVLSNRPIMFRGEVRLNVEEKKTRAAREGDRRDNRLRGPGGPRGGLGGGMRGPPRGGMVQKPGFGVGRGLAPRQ"}
{"Sequence": "UGGGAGGUGGAUUUUGUUUAUUUUUUUAGCUCAUUUCCAGGGGUGGGAAUUUUUUUUUAAUAUGUGUCAUGAAUAAAGUUGUUUUUGCAA", "log2 enrichment": 0.32}
{"Sequence": "UCCUUUGUGUUUACAAAAGCACUGACCCUUUACCUUUUCUUUAGCAAGAAGAAUGGAAUGAACAUAAUGCCAAAAUAAUUAAAUAUAUAA", "log2 enrichment": 1.74}
{"Sequence": "UGGCCCUGGUGGCAUGCGGGGACGAAGAGGUGGCCUCAUGGAUCGUGGUGGUCCCGGUGGAAUGUUCAGAGGUGGCCGUGGUGGAGACAG", "log2 enrichment": 0.425}
{"Sequence": "GUCCUGUGCUACACAUCGUAUGUACCGAAUCGGAAAAAAGGGGAAAAAAGGAAAAAAGGAAAGUAUUAUGUUACGCCGUUCGGAUCUGCA", "log2 enrichment": -0.343}
{"Sequence": "UGGCCCUGGUGGCAUGCGGGGAGGAAGAGGUGGCCUCAUGGAGCGUGGUGGUCCCGGUGGAAUGUUCAGAGGUGGCCGUGGUGGAGACAG", "log2 enrichment": -0.175}
{"Sequence": "UCCUGUGCUACACAUCGUAUGUACCGAAUCGGGAAAAAAGGAAAAAAGGGGAAAAAAGGAAAGUAUUAUGUUACGCCGUUCGGAUCUGCA", "log2 enrichment": -0.514}
{"Sequence": "GCAGGAAGUAAAAACAAAUGGAACUGCUUCGGAUAGUGGCAGGGGUGGGGGUUGCUAAGGAAAGGGUGGGAUGGGAGUGGGUAAAGAGUU", "log2 enrichment": -0.0877}
{"Sequence": "UCCUGUGCUACACAUCGUAUGUACCGAAUCGGGAAAAAGGGUUUUUGGGAAAAAAAGGGAAAGUAUUAUGUUACGCCGUUCGGAUCUGCA", "log2 enrichment": -0.259}
{"data": "Series 5", "target": "RING finger protein unkempt homolog, zinc fingers 1-6, GST-SBP tag (UNK, Homo sapiens, UniProt Q9C0B0, residues 30-357)", "method": "RNA Bind-n-Seq", "molecule type": "RNA", "sample": "in vitro", "concentration": "not given", "setting": "RNA with constant flanks, human-mouse chimeric sites, ends assumed", "baseline": "input RNA pool", "reading": "higher = stronger binding", "shared flanks, not repeated": "GGGAGUUCUACAGUCCGACGAUC … CAACAGAGGAUUGAGCAUCA", "sequence of UniProt Q9C0B0 (30-357, looked up)": "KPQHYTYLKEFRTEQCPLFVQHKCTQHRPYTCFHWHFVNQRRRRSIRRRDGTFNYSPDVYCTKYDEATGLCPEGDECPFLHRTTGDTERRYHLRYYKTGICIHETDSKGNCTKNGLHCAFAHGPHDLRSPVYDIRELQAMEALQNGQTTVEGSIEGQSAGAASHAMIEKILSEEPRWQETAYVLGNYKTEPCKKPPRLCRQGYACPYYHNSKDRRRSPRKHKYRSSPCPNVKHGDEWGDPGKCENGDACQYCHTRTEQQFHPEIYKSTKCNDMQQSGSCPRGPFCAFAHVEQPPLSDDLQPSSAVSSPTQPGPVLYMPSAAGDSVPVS"}
{"Sequence": "GAUCAUGAACCACCAUCAGAAAUGAAGAUGAGAUUACCCAAGACGAGCCAAAACCGCGCGCUACAGAAAAGUAAACUUAACCUUGCAGAGUUCCUUAAUGAAGAUACAAGUUAAGAGAGC", "bound/input enrichment [ratio]": 0.161}
{"Sequence": "AUGGAGAAGGAUUCUCUGCCUCGCUUUGUGCGCUCUGAAUUUUAUAAGGAGCUAAUCAAGUAGUAAUCUGGUCAGGCUUCCAAAAGUUGCCCUGUGAGUUGAGUUACAUCCUUUGUAGCA", "bound/input enrichment [ratio]": 0.193}
{"Sequence": "GAUCAUGAACCACCAUCAGAAAUGAAGAUGAGAUUACCCAGACGAGCCAAAACAGCUGCGCUACAGAAAAGUAAACUUUAACCUUGCGAGUUCCUUAAUGAAGAUACAAGUUAAGAGAGC", "bound/input enrichment [ratio]": 0.315}
{"Sequence": "AUAGAUGAAAUUGAUGUGGACCAGGAAGGAAUUGCAGAAAUGAUCCUGGAUGAAAAUGCUAUUGCUCAGGUCCCACGCCCUGGCACAUCUUUGAAACUCCCUGGCACUAACCAAACAGGA", "bound/input enrichment [ratio]": 0.272}
{"Sequence": "UCUUAACGUCCAUUUAAAACUUAUUUUUAUAGCUAGAUAAAUAUUGUUAGUCUUAGACAAUAGCUCACAUUUUUUGAGAAGCAUGCCCUCCCUGUCCAUUUGUCUUAUAACAUGACCCAG", "bound/input enrichment [ratio]": 70.9}
{"Sequence": "UAAGUUAUUUUGUACAGCUUUGUAAAUUGUAUAGCUUUUUAUAUUGCCAUGUUUAUUUUGUUUGGGUAAUUUGGUUCAUUAAGUACAUAGCUAAGGUAAUGAACAUCUUUUUCAGUAAUU", "bound/input enrichment [ratio]": 1.08}
{"Sequence": "AAAGGCAAAAAGGGCAGCUGUGUCAUUUCAUAAGUAACUCUGGGGGAGGGAAAUUCUGUUCUUUUGUUUAAUUUUCCCCCAGAUAAAGCCAAAGUGUGUGUUGAAGAACUGAGAAAAAAU", "bound/input enrichment [ratio]": 0.308}
{"Sequence": "AGGAGGAGGUUAAAGGGUGAGAGUGGGAUGGAGGAUUGUGUCAUGGCUCUGGAGACACUGUUCAGUGUCCUGCUUUCUCUGUGCAGACUGAUGGCCCCCUACACACCCUUUCUGACUGAG", "bound/input enrichment [ratio]": 0.135}
{"note": "Some of these lines once more (series 2):"}
{"Sequence": "ATCGCCCC", "E-score": 0.0772}
{"Sequence": "CGTAGTGC", "E-score": 0.143}
{"Sequence": "ACACCGCA", "E-score": -0.0127}
{"Sequence": "CTACTCAC", "E-score": -0.0381}
{"Sequence": "ACCCACCT", "E-score": -0.223}
{"Sequence": "CCATCCAC", "E-score": -0.228}
